Published values pooled from the literature.
F2 mature alpha-thrombin: Prothrombin, mature alpha-thrombin (F2, Homo sapiens, UniProt P00734)
Chain of UniProt Q92985 (whole entry, unmodified, looked up): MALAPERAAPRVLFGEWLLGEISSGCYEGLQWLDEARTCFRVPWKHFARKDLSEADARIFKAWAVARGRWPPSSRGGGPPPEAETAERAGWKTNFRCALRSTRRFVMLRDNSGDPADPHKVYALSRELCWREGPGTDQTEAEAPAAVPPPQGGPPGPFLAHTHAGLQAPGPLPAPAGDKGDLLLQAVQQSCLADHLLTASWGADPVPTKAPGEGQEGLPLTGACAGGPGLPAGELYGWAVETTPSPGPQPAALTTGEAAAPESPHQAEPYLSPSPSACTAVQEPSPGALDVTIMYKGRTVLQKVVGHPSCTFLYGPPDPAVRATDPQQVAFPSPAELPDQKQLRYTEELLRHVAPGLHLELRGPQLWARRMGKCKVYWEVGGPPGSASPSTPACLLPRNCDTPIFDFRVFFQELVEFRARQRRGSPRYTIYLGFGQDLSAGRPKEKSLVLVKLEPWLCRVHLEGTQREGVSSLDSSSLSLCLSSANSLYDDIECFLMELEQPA
Chain of UniProt P17106 (whole entry, looked up): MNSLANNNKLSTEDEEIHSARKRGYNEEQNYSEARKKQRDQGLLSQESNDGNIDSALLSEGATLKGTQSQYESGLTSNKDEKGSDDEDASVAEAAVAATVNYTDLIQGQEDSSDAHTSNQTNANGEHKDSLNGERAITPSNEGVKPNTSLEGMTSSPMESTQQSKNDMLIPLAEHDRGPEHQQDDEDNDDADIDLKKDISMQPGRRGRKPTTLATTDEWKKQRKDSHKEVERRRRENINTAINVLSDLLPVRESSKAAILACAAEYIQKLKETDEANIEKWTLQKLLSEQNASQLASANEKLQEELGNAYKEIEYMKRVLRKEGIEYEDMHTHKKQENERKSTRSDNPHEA
Chain of UniProt P07270 (whole entry, looked up): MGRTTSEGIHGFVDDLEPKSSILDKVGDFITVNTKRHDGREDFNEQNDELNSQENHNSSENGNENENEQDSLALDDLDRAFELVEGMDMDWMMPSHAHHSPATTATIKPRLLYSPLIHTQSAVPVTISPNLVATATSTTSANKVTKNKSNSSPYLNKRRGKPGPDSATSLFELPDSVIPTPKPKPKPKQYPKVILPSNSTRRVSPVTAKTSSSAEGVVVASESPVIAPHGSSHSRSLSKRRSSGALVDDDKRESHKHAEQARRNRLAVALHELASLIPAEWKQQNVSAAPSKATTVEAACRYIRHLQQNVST

`GGTTGGTGTGGTTGG (2'F-ANA at 2 3 6 10 11 13 15)`: “mean fluorescence intensity” 281 a.u. (F2 mature alpha-thrombin; aptamer microarray, sandwich; DNA with 2'F-ANA, in vitro; 200 nM, whole 15-mer aptamer, many near background, together with: Cy3 exosite-II aptamer, 400 nM; higher = stronger binding).
The E-score of `AGAGACCG` is reported as 0.0654 (Histone acetyltransferase KAT6A, both winged helices, GST fusion (KAT6A, Homo sapiens, UniProt Q92794, residues 1-181); protein binding microarray; double-stranded DNA, one strand shown, in vitro; not given, 8-mer, flanks averaged, mean of 2 arrays, mostly near background; relative to: not given, higher = stronger binding).
For `GCCTAGCACTTAGAACTGAGTATCGGTTAGTGCTAGGTCTTGATTCGCTTGACGCTGCTG`, “fitted relative affinity” read -0.161 z-score (Interferon regulatory factor 7, full length, phosphomimetic (IRF7, Homo sapiens, UniProt Q92985, residues 1-503, S471D/S472D/S475D/S476D/S477D/S483D/S484D/S487D); protein-binding microarray; double-stranded DNA, one strand shown, in vitro; 2200 nM top, 60-bp whole probe, together with: salmon DNA 0.4 mg/ml; relative to: random background probes, higher = stronger binding).
`GGTTGGTGTGGTTGG (2'F-ANA at 7 8 10 11 12 13 14)` — result for “mean fluorescence intensity”: 116 a.u. (F2 mature alpha-thrombin; aptamer microarray, sandwich; DNA with 2'F-ANA, in vitro; 200 nM, whole 15-mer aptamer, many near background, together with: Cy3 exosite-II aptamer, 400 nM; higher = stronger binding).
`AAAGAACTCCCTTCGCATGTGATGAAGGTTATAGGTGTCTTGATTCGCTTGACGCTGCTG` has a fluorescence intensity of 9270 a.u. (Phosphate system positive regulatory protein PHO4, full length, GST-tagged (PHO4, Saccharomyces cerevisiae, UniProt P07270, residues 1-312); competition protein-binding microarray; double-stranded DNA, one strand shown, in vitro; 2 µM, whole 60-bp probe, lowest competitor level, together with: Cbf1 competitor, 0.05 µM; higher = stronger binding).
`CGTATCTA` has an E-score of -0.164 (Histone acetyltransferase KAT6A, winged helix 2, GST fusion (KAT6A, Homo sapiens, UniProt Q92794, residues 85-181); protein binding microarray; double-stranded DNA, one strand shown, in vitro; not given, 8-mer, flanks averaged, mean of 2 arrays, mostly near background; relative to: not given, higher = stronger binding).
With `TGTACGAAGCTATAGCACGTGGGTATAGTAGTTAGGGTCTTGATTCGCTTGACGCTGCTG` the fluorescence intensity was 4930 a.u. (Centromere-binding protein 1, full length, N-terminal tag (CBF1, Saccharomyces cerevisiae, UniProt P17106, residues 1-351); protein-binding microarray; double-stranded DNA, one strand shown, in vitro; 0.8 µM, whole 60-bp probe, no competitor; higher = stronger binding).
For `GCCTAGCACTCAGAAATCAGTATGTTACTGTGCTAGGTCTTGATTCGCTTGACGCTGCTG`, the log fluorescence was 0.299 z-score (Interferon regulatory factor 5, full length, phosphomimetic (IRF5, Homo sapiens, UniProt Q13568-2, residues 1-514, K96S/S451D/S453D/S456D/S462D); protein-binding microarray; double-stranded DNA, one strand shown, in vitro; 250 nM, 60-bp whole probe, together with: salmon DNA 0.4 mg/ml; relative to: random background probes, higher = stronger binding).
With `PhoQ, residues 284 288 289 292 302 303 TLMATV` the fold induction was 3.29 (PhoP, residues 12 14 15 18 19 NNFVT (Escherichia coli, UniProt P23836); Sort-seq, item: YFP reporter; E. coli; PhoQ-PhoP variant library, together with: 10 µM Mg2+; relative to: high Mg2+ state, higher = stronger signaling).

Repeated from above:
With `PhoQ, residues 284 288 289 292 302 303 TLMATV` the fold induction was 3.29 (PhoP, residues 12 14 15 18 19 NNFVT (Escherichia coli, UniProt P23836); Sort-seq, item: YFP reporter; E. coli; PhoQ-PhoP variant library, together with: 10 µM Mg2+; relative to: high Mg2+ state, higher = stronger signaling).
